Measured values of several laboratories.
Every numbered part comes from another study and shows a few of its results, in no order.

Block 1 — method: universal PBM; molecule type: double-stranded DNA, one strand shown; medium: in vitro; concentration: not given; direction: higher = stronger binding; quantity: E-score
Target: Sal-like protein 4, full length isoform B (SALL4, Homo sapiens, UniProt Q9UJQ4-2, residues 1-616)
Setting: 8-mer, flanks averaged, mean of replicates
AAAGGGTG: 0.0258
GCGTTGGA: -0.181
GTGGAATA: 0.14
AGCGCCGG: -0.413
AACTGCGA: -0.141
AAAGCGGG: -0.103
TTTTAAAA: 0.288
AAGAGGGA: 0.0508
CATCGCGA: -0.0998
CGTAGCTA: -0.156
CACTACCG: -0.126
ATACGGGA: -0.0473
CAACCGGG: -0.34
AAGGGGGA: -0.0711
CCATGCCA: -0.0579
GTAGTGTA: 0.0598
GAGGCCTC: -0.229
AGTTTCCC: -0.112
GAATCGAA: 0.08
GGCTATTA: 0.127
AAGATAAC: 0.18
CTGATATC: 0.0437

Block 2 — method: RNA Bind-n-Seq; molecule type: RNA; medium: in vitro; concentration: 200 nM; setting: whole 134-nt RNA, ends assumed; with: 150 mM LiCl; baseline: input library; direction: higher = stronger binding; quantity: log2 enrichment; library: 7-deaza-guanosine replaces G
Target: Fragile X messenger ribonucleoprotein 1, C-terminal low-complexity region (Fmr1, Mus musculus, UniProt P35922)
Shared flanks, not repeated: GGGAGUUCUACAGUCCGACGAUC … UGGAAUUCUCGGGUGUCAAGG
AAGUCCUGUGCUACACAUCGUAUGUACCGAAUCGGGAAAAGGGAAAAGGGGAAAAGGAAAGUAUUAUGUUACGCCGUUCGGAUCUGCACU: 0.00885
GUCCUGUGCUACACAUCGUAUGUACCGAAUCAAACCCAAAUUUUUUUAAAUUUUUAAAAAAGUAUUAUGUUACGCCGUUCGGAUCUGCAC: -1.95
UAACUUUAGAGGAGGAUCUGAUCGAUAUGGCAGUGGACGUGGAUUUGGGGAUGGCUAUAAUGGGUAUGGAGGAGGACCUGGAGGUGGCAA: 0.609
UGUGAGCUGACUUUUUGGAUCAACUUUACUUUUCCCUUCUUUUUAGGCAAUUGAAGAUGAAGGUGGUAAUCCUGACGAAAUUGAAAUUAC: 0.296
UCCUGUGCUACACAUCGUAUGUACCGAAUCAAAUUUUUUUAAACCCCCCCAAACCCAAAAAAGUAUUAUGUUACGCCGUUCGGAUCUGCA: 2.06
UGGCCCUGGUGGCAUGCGGGGAGGAAUAGGUGGCCUCAUGGAUCGUGGUGGUCCCGGUGGAAUGUUCAGAGGUGGCCGUGGUGGAGACAG: -0.268
CAAGUCCUGUGCUACACAUCGUAUGUACCGAAUCGGAGGUUUUUGGUUUUUUUGGAAAGUAUUAUGUUACGCCGUUCGGAUCUGCACUUC: -1.37
ACCAUGCAGGUGGGCAUCUUUGGGAAGUGGGGCAAGGGGGGGAUAGGGAGGGGGGUGACACUUUGGGAACAGGUGGUCCCAGGUCGUUUC: 1.41
UCAAGUCCUGUGCUACACAUCGUAUGUACCGAAUCGGGAAAGGAAAGGAAAGGGAAAGUAUUAUGUUACGCCGUUCGGAUCUGCACUUCC: -0.689
AGUCCUGUGCUACACAUCGUAUGUACCGAAUCGGGUUUUUGGGUGGGUUUUUUUGGGAAAGUAUUAUGUUACGCCGUUCGGAUCUGCACU: -1.72
CUGUGCUACACAUCGUAUGUACCGAAUCGGGGUUUUUGGGGAAAAAAAGGGGUUUUUGGGGAAAGUAUUAUGUUACGCCGUUCGGAUCUG: -1.59

Block 3 — method: protein-binding microarray; molecule type: double-stranded DNA, one strand shown; medium: in vitro; concentration: not given; direction: higher = stronger binding; quantity: E-score
Target: Max-binding protein MNT, bHLH-zipper, MAX partner unstated (MNT, Homo sapiens, UniProt Q99583, residues 220-300)
Setting: k-mer, scored over probes, only values ≥0.25
Construct (chain): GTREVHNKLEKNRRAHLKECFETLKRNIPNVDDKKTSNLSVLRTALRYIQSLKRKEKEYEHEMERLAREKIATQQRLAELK
ACCATGGT: 0.27
CCAGCACG: 0.343
CCGCCACG: 0.336
ACACGCGG: 0.464
CCACGTCG: 0.284
ACGTGGTA: 0.459
GCGGCCAC: 0.269
CATGCGAC: 0.405
ACGCGGGC: 0.262
ACCACCCC: 0.317
ACGTGCGA: 0.413
AACACATG: 0.459
CGTGATAG: 0.3
CACGCGTC: 0.436
ACACGTGA: 0.494
ACACACGC: 0.383
GTGGGGTA: 0.273
CGTGTTCC: 0.388
CCCCAACC: 0.354
CAGGAACG: 0.26
GCGTGCAC: 0.422
GCCACCCC: 0.301
ACGCGCAA: 0.293

Block 4 — method: RNA Bind-n-Seq; molecule type: RNA; medium: in vitro; concentration: 100 nM; baseline: input RNA pool; direction: higher = stronger binding; quantity: bound/input enrichment
Target: RING finger protein unkempt homolog, zinc fingers 1-6, SBP tag (UNK, Homo sapiens, UniProt Q9C0B0, residues 30-357)
UniProt Q9C0B0, sequence (30-357, looked up): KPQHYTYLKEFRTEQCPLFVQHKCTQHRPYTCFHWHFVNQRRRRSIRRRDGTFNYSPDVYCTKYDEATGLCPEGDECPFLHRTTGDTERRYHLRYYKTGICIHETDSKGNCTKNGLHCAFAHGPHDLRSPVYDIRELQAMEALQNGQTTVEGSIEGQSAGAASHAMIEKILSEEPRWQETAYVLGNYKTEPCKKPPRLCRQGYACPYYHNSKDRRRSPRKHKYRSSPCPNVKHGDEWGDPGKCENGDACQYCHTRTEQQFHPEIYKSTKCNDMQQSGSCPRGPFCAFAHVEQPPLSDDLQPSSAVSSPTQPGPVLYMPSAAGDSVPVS
Setting: RNA with constant flanks, vertebrate orthologous sites, ends assumed
Shared flanks, not repeated: GGGAGUUCUACAGUCCGACGAUC … CAACAGAGGAUUGAGCAUCA
GUCAUCUGAUUGGAUGAAGACCAUCCCAAGUUACAACCAAACAAACAGCUCCAUGGACUUUAGAAAUUACAUGAUGAGGGAUGAGAAUCUGGAACCACUGCCCCCAAACUGGGAAAUGGC: 0.931 ratio
UUCAGGCACAACUGACUGGUUCACAGCAUUCCUUACAUAGCUAUCUAUCAAAUGCAAGUGUAGUUAAUUUUCAGGAAACAAGCAGGCAGUCAUCUUUAUCCUGUAGCCCAAUCGGAGAUU: 1.47 ratio
CUACGUGAAAUAUGGAUGCAGUGUAUAAAAAGGCAGUGACUUCAGCUUUAUAUAUAUAUAUUGUUAGUUUUAGAGUUAUUCACAUUUAUUUAAACUUUUAGAUUGGAUUGUUUGCUAUUG: 2.19 ratio
CCUCCUGAACUUCUCUUGCUUUCAAGCUGUGGCUGUUUCAGAUACUGGUUUAAUUUUCUUUGCAGUUUUCCCCUGUCCCACCUUUUUCCCCUUCUUUCCAAGGUUUGACUCAUGGAUUGU: 0.98 ratio
GUGACUUUGGAAGUCCUCACUGCCGUGGUGUGGAGACUGUGUAGUCCCGACGUUCCGGGUUUGUCUGUCUGUCGUGGACUUGGGAGUUUUGCUGCAGUUAUGCUUCGCCAGAUCAUCGGU: 0.354 ratio
UUCCAUCUUGAGUUGGCCUCAUAUCUGUGGAAGAUGUAACAUUUUGCAACAAUUGUAUUAUAUCUAGUUAAGCUGAGUUUCAUAUUUUUUUAUUAGCCUGUAAAUAAAGAUGGGGUCUUA: 1 ratio
AAUCACUCUAAUUGUAAUCUGAAUAAAGUGUAACAUUGUGUAGCCUUUUUUUGUAUAAAAUAGACAAAUAGAAAUGGUCCAAUUAGUUUCCUUUUUAAUAUGCUUAAAAUAAGCAGGUGG: 1.56 ratio
CAGGGGUGGCCCCAAUCCCACCUCUGUCUAUUCUGUAAACUACAACCUGUAAAUGACGUUUAGCAUUCCUAUUGUAACAAAAUUAAUUUUUAUGAAAUAAAUUAUAUUUCCUAGUCUAAU: 0.804 ratio
UCCCCUGGGCCGGGACAGAUUUUUUUUUUUAAUGUCUUGAAACUUAAAACUCUGUGCUUGUAGGAGACUGUAACCUUUUUGUCUUUUUUUUUUUAAAAAAAACAAUCUCCACCUCCAGUG: 0.83 ratio
AGUGGAUGCAACAUAGGAACAUCCCAGGUACUGACUGCAGCUUCCGAUGCAAGGUUAGUGUGGGAGCCACAGUCUGUGUGAGGACGAUACAUGUCUUUGAGUAAAUGACAUCUUUAACUU: 0.198 ratio
UCUCUACAAUUUUAAAGACACUUCCUUAUAAGGCACUUUGGCUCUUCAUAUAUCUCAUCCUGUUUACUUACCUGUUUUCAAAAACAGCAGUACGAACUCAGGGGACUCGCUUGGCGUGUG: 0.452 ratio

Block 5 — method: protein-binding microarray; molecule type: hairpin DNA; medium: in vitro; concentration: not given; baseline: not given; direction: higher = stronger binding; quantity: median fluorescence
Target: FOXO3, forkhead domain (mouse, UniProt Q9WVH4, residues 31-263)
UniProt Q9WVH4, sequence (31-263, looked up): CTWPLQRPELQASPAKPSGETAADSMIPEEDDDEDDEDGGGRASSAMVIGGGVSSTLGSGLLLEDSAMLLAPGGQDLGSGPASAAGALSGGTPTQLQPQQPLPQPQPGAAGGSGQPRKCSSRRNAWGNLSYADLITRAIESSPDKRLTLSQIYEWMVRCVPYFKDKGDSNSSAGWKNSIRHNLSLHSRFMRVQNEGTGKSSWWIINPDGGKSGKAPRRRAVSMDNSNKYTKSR
Setting: whole hairpin DNA, median over replicate spots
GAGGCCATGTATACAACGCCTCCTGGCGTTGTATACATGGCCTCACACTC: 4040 a.u.
GAGGCCATGTAGCCAACGCCTCCTGGCGTTGGCTACATGGCCTCACACTC (5mC at 33): 4250 a.u.
GAGGCCATGCAAACATCGCCTCCTGGCGATGTTTGCATGGCCTCACACTC: 4750 a.u.
GAGGCCATGCAAACGACGCCTCCTGGCGTCGTTTGCATGGCCTCACACTC: 4620 a.u.
GAGGCCACGCAAACAACGCCTCCTGGCGTTGTTTGCGTGGCCTCACACTC: 5790 a.u.
GAGGCCATGCAAACACGGCCTCCTGGCCGTGTTTGCATGGCCTCACACTC (5mC at 28): 4680 a.u.
GAGGCCATGCAAAGAACGCCTCCTGGCGTTCTTTGCATGGCCTCACACTC (5mC at 31): 4040 a.u.
GAGGCCATGTAACCCGCGCCTCCTGGCGCGGGTTACATGGCCTCACACTC (5mC at 15): 4350 a.u.
GAGGCCGTGTAACCAACGCCTCCTGGCGTTGGTTACACGGCCTCACACTC: 4500 a.u.
GAGGCCATGTCAACAACGCCTCCTGGCGTTGTTGACATGGCCTCACACTC: 5430 a.u.
GAGGCCATGTAACCACGGCCTCCTGGCCGTGGTTACATGGCCTCACACTC (5mC at 16 28): 4010 a.u.
GAGGCCATGCAAACACCGCCTCCTGGCGGTGTTTGCATGGCCTCACACTC (5mC at 16): 4930 a.u.
GAGGCCATGTCGCCAACGCCTCCTGGCGTTGGCGACATGGCCTCACACTC (5mC at 11): 4490 a.u.
GAGGCCATGCCAACAACGCCTCCTGGCGTTGTTGGCATGGCCTCACACTC: 4690 a.u.
GAGGCCATGCAACGAACGCCTCCTGGCGTTCGTTGCATGGCCTCACACTC (5mC at 13 31): 4540 a.u.
GAGGCCATGTAAAGAACGCCTCCTGGCGTTCTTTACATGGCCTCACACTC: 3550 a.u.
GAGGCCATGCAAACAATGCCTCCTGGCATTGTTTGCATGGCCTCACACTC: 4430 a.u.

Block 6 — method: protein binding microarray; molecule type: double-stranded DNA, one strand shown; medium: in vitro; concentration: not given; baseline: not given; direction: higher = stronger binding; quantity: E-score
Target: Histone acetyltransferase KAT6A, both winged helices, GST fusion (KAT6A, Homo sapiens, UniProt Q92794, residues 1-181)
Setting: 8-mer, flanks averaged, mean of 2 arrays, mostly near background
Residues (chain): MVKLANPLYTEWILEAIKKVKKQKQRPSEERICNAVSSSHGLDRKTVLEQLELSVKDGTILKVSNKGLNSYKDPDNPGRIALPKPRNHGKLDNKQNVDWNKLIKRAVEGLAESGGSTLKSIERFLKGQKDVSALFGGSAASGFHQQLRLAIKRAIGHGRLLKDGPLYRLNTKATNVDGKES
ACCTTAGG: -0.0128
GACATCCC: 0.0843
GTTTCGGA: -0.06
CTACAGGA: -0.153
CACATGCA: -0.0619
CCAGTAGA: -0.285
ATGGACTC: -0.00356
TATGGACA: -0.134
CCTGGTGC: -0.0973
CAAGTGTA: -0.153
CTGTTCAA: -0.099
CGATGACA: -0.0563
AAGAGCAT: -0.17
TGGCTACA: -0.264
ATGCGCTA: 0.21
CTAAGAAA: -0.0415
GCCATCAA: -0.0683
ATACGATA: -0.0436
CAATTGGG: -0.136
